Measurements pooled from the literature.
± gives the spread as reported.

SMILES | tested on | test | setting | how to read | measurement | result
CCN1CCN(Cc2ccc(Nc3ncc(F)c(-c4cc(F)c5nc(C)n(C(C)C)c5c4)n3)nc2)CC1 | HD-MB03 | cell growth | 168 h, DMSO |  | IC50 | 378 nM
Cn1cnc2c(F)c(Nc3ccc(Br)cc3F)c(C(=O)NOCCO)cc21 | A-375 |  | 0.625 µM, 72 h |  | viability | 33%
COc1cnc2cccc(N3CCc4c(cc(Cn5ccnc5C)cc4-c4cn(C)nc4C(F)(F)F)C3=O)c2c1 | BICR6 | cell growth | 120 h |  | EC50 | 54.1 nM
CC(C)=CCC[C@@]1(C)C(CC[C@H]2[C@]3(C)CC[C@H](O)C(C)(C)O[C@H]3CC[C@@]2(C)O)=C(C)CC[C@H]1O | KB-C2 (P-gp overexpressing) | drug efflux | 10 µM, 120 min |  | intracellular [3H]-paclitaxel remaining | 58.9%
CC1(C)CCC(CN2CCN(c3ccc(C(=O)NS(=O)(=O)c4ccc(NCC5CCOCC5)c([N+](=O)[O-])c4)c(Oc4cnc5[nH]ccc5c4)c3)CC2)=C(c2ccc(Cl)cc2)C1 | THP-1 | annexin V/PI flow cytometry, refers to: annexin V-/PI- | 0.4 µM, 24 h |  | viable cells | 93.7%
CC(C)c1c2cc(-c3ccnc(NC4CCC(NC5CCOCC5)CC4)n3)ccc2nn1C (centres unmarked) | HD-MB03 | cell growth | single agent |  | IC50 | 166 nM
CC/C(=N\NC(=O)C(C)Nc1ccccc1)c1ccc(O)c(C)c1O (centres unmarked) | SK-OV-3 | Western blot, refers to: YAP | 10 µM, 6 h, 2D culture, unit not given | reference: β-actin | protein level | 1.7 ± 0.41
Cn1cc(-c2ccc(-c3cncc(Cl)c3N3CCC4(CCNC4=O)CC3)cc2)cn1 | COLO 205 | gene expression, microarray, refers to: CCL15 mRNA | concentration not given, 6 h | reference: untreated cells | log2 fold change | 2.72
Cc1cccc(-c2[nH]c(CNc3ccccc3F)nc2-c2ccc3ncnn3c2)n1 | MM1.S pomalidomide-resistant | XTT | 2.5 µM | reference: untreated | viability | 23%
O=C1c2cccc3c2[C@H](CCC3)CN1[C@@H]1CN2CCC1CC2 | primary rat hippocampal/cortical neuron-glia cultures |  | 1 µM, added: 1 µM α-synuclein oligomers |  | reversal of trafficking deficit | -15.9%
CC1=C(C(=O)OC(C)C)C(c2cccc([N+](=O)[O-])c2)C(C(=O)OC2CN(C(c3ccccc3)c3ccccc3)C2)=C(N)N1 (centres unmarked) | Nedd8-cullin1 interaction | neddylation, AlphaScreen | 100 µM |  | inhibition | 103%
O=C(O)CN(c1ccc(N(CC(=O)O)S(=O)(=O)c2ccc3c(c2)OCO3)c2ccccc12)S(=O)(=O)c1ccc2c(c1)OCO2 | HepG2-C8 ARE-luciferase reporter cells | ARE reporter activation, luciferase reporter | 10 µM, 24 h, 0.1% DMSO | reference: vehicle control | fold induction | > 2
Nc1nc(N)c2nc(CNCc3ccc(Oc4ccccc4)cc3)cnc2n1 | 786-O | high-content imaging, refers to: MitoTracker Red uptake | 10 µM |  | mitochondrial toxicity | -6.05 ± 11%
COc1cc(Br)c(Nc2nc(-c3c(C)nc4ncccn34)cs2)c(Br)c1 | HD-MB03 | cell growth | single agent |  | IC50 | 472 nM
CCn1cc(-c2cc(Cn3ccnc3)cc3c2CCN([C@H](c2cc(OC)ccn2)C2CC2)C3=O)c(C(F)(F)F)n1 | Calu-6 | cell growth, inhibitor | 120 h |  | EC50 | 3250 nM
C[N+](C)(C)CCOP(=O)([O-])OP(=O)([O-])OC[C@H]1O[C@@H](n2ccc(N)nc2=O)[C@H](O)[C@@H]1O.[Na+] | Nedd8-cullin1 interaction | neddylation, AlphaScreen | 100 µM |  | inhibition | 1.3%
N#Cc1ccc(COC[C@H]2O[C@@H](n3c(NCc4ccc(Cl)c(Cl)c4)nc4c(N)ncnc43)[C@H](O)[C@@H]2O)cc1 | HD-MB03 |  |  |  | IC50 | 669 nM
Cc1cc(Nc2ncc(Cl)c(Nc3ccccc3S(=O)(=O)C(C)C)n2)c(OC(C)C)cc1C1CCNCC1 | CLB-GE | phosphoproteomics LC-MS/MS, refers to: KIF26B phosphorylation | 200 nM, 60 min | reference: untreated | log2 fold change | -2.21
O=C(/C=C/C=C/C=C/C1CCCCC1)NC1=C[C@@](O)(/C=C/C=C/C=C/C(=O)NC2=C(O)CCC2=O)[C@@H]2O[C@@H]2C1=O | Calu-6 | cell growth, CellTiter-Glo | 78 h |  | GI50 | 18900 nM
C=Cc1c2[n-]c(c1C)/C=c1\[n-]/c(c(C)c1C=C)=C\c1[n-]c(c(CCC(=O)O)c1C)/C=c1\[n-]c(c(C)c1CCC(=O)O)=C2.[Sn+4] | SH-SY5Y | RNA-seq, refers to: ZYX | 5 µM, 5 h | reference: untreated | log2 fold change | 2.61
CCn1cc(-c2cc(Cn3ccoc3=N)cc3c2CCN([C@@H](C)c2cc(OC)ccn2)C3=O)c(C(F)(F)F)n1 | RKO | cell growth, inhibitor | 120 h |  | EC50 | > 30000 nM
Cc1ccc(CNC(=O)Cn2cc(CSc3nc4ccccc4[nH]3)nn2)cc1 | Caco-2 | MTT | 7.81 ppm |  | cytotoxicity | 49.3%
Cn1cc(Nc2nccc(-c3ccc4c(c3)CN(C3COC3)CC[C@H]4NC(=O)c3cn(C(C)(C)C)nn3)n2)cn1 | mouse splenic B cells | refers to: Macropinocytosis signalling | 30 mg/kg, IgD-activated in vivo | reference: vehicle, direction not given | pathway activation z-score | 2.33

Repeated from above:
SMILES | tested on | test | setting | how to read | measurement | result
COc1cc(Br)c(Nc2nc(-c3c(C)nc4ncccn34)cs2)c(Br)c1 | HD-MB03 | cell growth | single agent |  | IC50 | 472 nM
Cn1cc(Nc2nccc(-c3ccc4c(c3)CN(C3COC3)CC[C@H]4NC(=O)c3cn(C(C)(C)C)nn3)n2)cn1 | mouse splenic B cells | refers to: Macropinocytosis signalling | 30 mg/kg, IgD-activated in vivo | reference: vehicle, direction not given | pathway activation z-score | 2.33
Cc1cccc(-c2[nH]c(CNc3ccccc3F)nc2-c2ccc3ncnn3c2)n1 | MM1.S pomalidomide-resistant | XTT | 2.5 µM | reference: untreated | viability | 23%
CC/C(=N\NC(=O)C(C)Nc1ccccc1)c1ccc(O)c(C)c1O (centres unmarked) | SK-OV-3 | Western blot, refers to: YAP | 10 µM, 6 h, 2D culture, unit not given | reference: β-actin | protein level | 1.7 ± 0.41
